# Published values gathered from unrelated publications.
# Numbered parts are unrelated; each lists some results of a single study. Changes are numbered by the printed parent chain.

# Series 1
# Target: Histone acetyltransferase KAT6A, winged helix 2, GST fusion (KAT6A, Homo sapiens, UniProt Q92794, residues 85-181)
# Method: protein binding microarray
# Molecule type: double-stranded DNA, one strand shown
# Medium: in vitro
# Concentration: not given
# Notes: 8-mer, flanks averaged, mean of 2 arrays, mostly near background
# Relative to: not given
# Direction: higher = stronger binding
# Construct (chain): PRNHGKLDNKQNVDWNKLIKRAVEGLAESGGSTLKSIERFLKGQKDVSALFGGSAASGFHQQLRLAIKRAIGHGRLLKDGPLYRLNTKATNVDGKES
Strand,E-score
ACAGAACA,-0.0185
AACCTCGG,0.0918
CCCTAAAG,-0.0273
AGAACACA,0.0799
AAGAATGA,-0.0951
CAAAGGTC,-0.082
TCAGCCGA,0.116
CACGCGAG,0.0548
GTAATGGA,0.0577
CACTGGTA,-0.124
CAAGCTCA,-0.0344
CCCAACTC,0.142
GATATCAA,0.158
AGGTATAA,-0.054
AAGAGCGA,0.0776
AGCCGGGA,0.162
AAGGCTCT,-0.163
GGCTTGAC,-0.00426
GGACGGTA,-0.129
AATAGATG,-0.0414
CCCTTTCG,-0.0165

# Series 2
# Target: CCNF, cyclin fold, Cln2 fusion (human)
# Method: yeast growth competition, sequencing
# Medium: yeast
# Notes: strong parent motif
# Relative to: not given
# Direction: higher = stronger binding
# Starting sequence: E2F2 docking peptide (human); LPAKRKLDLEGIG; partner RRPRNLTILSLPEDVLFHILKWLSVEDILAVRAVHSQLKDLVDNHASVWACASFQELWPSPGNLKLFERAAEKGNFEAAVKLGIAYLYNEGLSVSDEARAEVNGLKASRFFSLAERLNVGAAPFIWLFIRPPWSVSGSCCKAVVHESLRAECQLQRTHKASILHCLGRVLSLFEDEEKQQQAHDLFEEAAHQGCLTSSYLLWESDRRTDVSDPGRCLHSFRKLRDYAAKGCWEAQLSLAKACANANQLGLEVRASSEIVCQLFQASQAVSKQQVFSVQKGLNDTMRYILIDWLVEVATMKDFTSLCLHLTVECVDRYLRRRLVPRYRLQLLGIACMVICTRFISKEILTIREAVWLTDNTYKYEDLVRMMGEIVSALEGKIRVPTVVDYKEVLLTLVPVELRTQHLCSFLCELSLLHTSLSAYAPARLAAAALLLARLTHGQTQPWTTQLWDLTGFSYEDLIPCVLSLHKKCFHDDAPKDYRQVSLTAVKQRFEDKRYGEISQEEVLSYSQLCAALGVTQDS
Change,normalised enrichment score
R5K,3.03
E10A,4.7
G13A,6.74
L9A,0.862
L7A,1.34
L1A,6.66
I12A,5.07

# Series 3
# Target: RNA binding protein fox-1 homolog 2, RRM domain, GST-SBP tag (RBFOX2, Homo sapiens, UniProt O43251-10, residues 100-194)
# Method: RNA Bind-n-Seq
# Molecule type: RNA
# Medium: in vitro
# Concentration: 365 nM
# Notes: natural RNA segment, single round, ends assumed
# Relative to: no-protein control
# Direction: higher = stronger binding
# Constant ends, left off below: GGGAGUUCUACAGUCCGACGAUC … UGGAAUUCUCGGGUGCCAA
# Target sequence (chain): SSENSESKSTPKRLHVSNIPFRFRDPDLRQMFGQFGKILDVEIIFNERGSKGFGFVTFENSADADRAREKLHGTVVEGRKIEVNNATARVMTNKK
Strand,RBNS enrichment (R)
UGGUUUUGAUUUCAGAUUGCAAACAUGUAAAACCUGCAUAGCAGCGAGUUCUCGGUUUUGCCGGUUUCUUUAGUUCUUUACUGUCACUGUCAUGUAAUCAGCUAAUUCUC,0.291
AUGGCCACUGAGUAGCCCCAGAGGUCGCACUCCGCAGGAGGACUGAGGCCAUGUGCCAUUCUCCCGGGCCCAGCGCCCGGCCGUCACCCCACCCGAUGACCUGCAUGAAG,1.84
CCCCAUCCCUAUCCUGCCUGAUCCCUGGAUCUCCCUCAGAUCCCCUCUUCUCAGACAGCGCCAGGCCGGGGUGGGGCCGGGGUUGGGGCCGAGCCCCACAGCUGCCCCCC,0.39
UUCUUUGUCCUCAAAACUGGCAGAUACUGGAGCUGGGCAGCCAUUUUUCCUUUUAGUGUCUCUUGAAGCUACAUGGCUAGAAUAGAUAUGAUUUGGAGGGUUUAAUUUCC,0.264
GCUGCUGCUGCCCGUUCUGUUGGCGGCUGCUGGCCAAGUGUGCACACUUAGCCCUGGUUGAGGUGCAUUGUCUGCUGUCGUCUGUUAAGCAUCUAACCGGAGUGGGAGGG,0.511
GAAACGCAGAGUCAAUCAGGUUUAUAAAGGAAGGCUGAGGGGAGAGAGGAGGCCUGGGGGCCUGGACGAAGAGGCCUAGGACCUGAAGAGACUCCAGCGAGUCUCGGGAA,0.54
GCAAGUACACACUUCCACGGAAUCAUACAUUGGUUCAUCUUCUGAGAGCGCACAAUAGCUACUGAACAAGCUGUGACUGAACUGUACAUAGACCUGAGAGGAGCAGAGAA,0.406
UGUGCAUAUUUGAAUUUUUCAUGCAGUUUUUCUAGAGCAAUAAUCAGUGGUGCUUUUGUACCUAGGUUUUAUGUGAUUUUAAUGAAACAUGGAUAGUUGUGGCCACCUGC,0.289
CCCUCGGGCUACCCAGCAAGAGGAUUCUGCAUCAAGGAACUGGACGAGCCGCUACCCAAACUGCCACCAUCUUUACUCUUUACAAAAUGGACCCAUCGAGAAUGUUGAAA,3.68
UUAUUUAGGCUUAGUGUUGUGGGCACCAAUGUCGAGCAUCGUUGUGACUUGUGCUGUAUGAUUCUCACUGAAGAAUUUCCUUUCAGCCAAGAAGCAGUGAGGUCUGGGAA,0.985
UUUUAACCUGUCGUUAAGUGUUGUAACUUCAAAAAACCAAAAUGCUUAUUUUAAUGUGAUUUUUCUAAAACUAUUGAAAAAUUAAUAUUUCUAUAAUCUAUUAAAAAAAA,0.92
GUCUGCCACAAAGAUGCCAUAUCAACUCCUCUCUUCCCAAAACUAAACAGGAUCUAUCAUGGUGGCACGGAGUCAGCUAGAUGUUGUCUCUUGCUAUCCCUGUGCUAGUU,0.421

# Series 4
# Target: Fragile X messenger ribonucleoprotein 1, C-terminal low-complexity region (Fmr1, Mus musculus, UniProt P35922)
# Method: RNA Bind-n-Seq
# Molecule type: RNA
# Medium: in vitro
# Concentration: 200 nM
# Notes: whole 134-nt RNA, ends assumed
# With: 150 mM KCl
# Relative to: input library
# Direction: higher = stronger binding
# Constant ends, left off below: GGGAGUUCUACAGUCCGACGAUC … UGGAAUUCUCGGGUGUCAAGG
Strand,log2 enrichment
UGCAUCUGCACUGGAGAAAUGGAAGACAGCAAUCCGGGAAGCUCAGACUUUCUCCAGGAUGCACGUGCUGCUUGGGAUGCUUGAUGCCUG,-0.208
AAGUCCUGUGCUACACAUCGUAUGUACCGAAUCGGGGAAAGGGGAAAGGGGAAAGGAAAGUAUUAUGUUACGCCGUUCGGAUCUGCACUU,-0.00228
CUCAAGUCCUGUGCUACACAUCGUAUGUACCGAAUCGGUUGGGGUUGGUUGGGGAAAGUAUUAUGUUACGCCGUUCGGAUCUGCACUUCC,1
CACAGACAACACGCACCCACACAGACACAGAGGGAAGGGGUUAGGAUGGGGACAGGGUGCACAGCAGGGCGGGGUAGGACCCCAGCCCCU,1.17
UGUGCUACACAUCGUAUGUACCGAAUCGGGGAAAAAAAGGAAAAAAAGGGGAAAAAAAGGGGAAAGUAUUAUGUUACGCCGUUCGGAUCU,-0.131
CAAGUCCUGUGCUACACAUCGUAUGUACCGAAUCGGAAAAAAAGGAAAGGUUUGGAAAGUAUUAUGUUACGCCGUUCGGAUCUGCACUUC,-1.22
GUCCUGUGCUACACAUCGUAUGUACCGAAUCAAACCCAAAUUUUUUUAAAUUUUUAAAAAAGUAUUAUGUUACGCCGUUCGGAUCUGCAC,-0.204
CUCAAGUCCUGUGCUACACAUCGUAUGUACCGAAUCGGGAAAGGAAAGGAAAGGAAAGUAUUAUGUUACGCCGUUCGGAUCUGCACUUCC,-0.467
AAGUCCUGUGCUACACAUCGUAUGUACCGAAUCGGGGUGGGGUGGGGAAAAAGGGGAAAGUAUUAUGUUACGCCGUUCGGAUCUGCACUU,0.989
CUCAAGUCCUGUGCUACACAUCGUAUGUACCGAAUCGGGUUGGGGUUGGUUGGGAAAGUAUUAUGUUACGCCGUUCGGAUCUGCACUUCC,0.8
CCUCAAGUCCUGUGCUACACAUCGUAUGUACCGAAUCGGCGGGGCGGGGCGGAAAGUAUUAUGUUACGCCGUUCGGAUCUGCACUUCCAG,0.356
ACCAUGCAGGUGGGCAUCUUUGGGAAGUGGGGCAACGGGGGGAUAGGGAGGGGGGUAACACUUUGGGAACAGGUGGUCCCAGGUCGUUUC,0.659
AUUCUUCAUUGAGGGUGAGGAUCUCCCAAUGGGAGACUGCUCUGAAAAGAGCAUGUGCUUUUUGAAUUAGAUAACCUACUAUAAUCAUGG,-0.999
UUAGAUGAGUGACCGAGGAGGUGGCGUUCCUUUGAGGAAAAUUGACAGACUUUUCAACUACAUGUAUUCAACUGCACCAAGACCUCGUGU,-0.449

# Series 5
# Target: Sal-like protein 4, full length isoform B (SALL4, Homo sapiens, UniProt Q9UJQ4-2, residues 1-616)
# Method: universal PBM
# Molecule type: double-stranded DNA, one strand shown
# Medium: in vitro
# Concentration: not given
# Notes: 8-mer, flanks averaged, mean of replicates
# Direction: higher = stronger binding
Strand,E-score
CGACGAAG,-0.108
ACACATCA,0.0538
AGGGCCGG,-0.311
ACGGGACC,-0.288
CGTATCCC,-0.122
ATTTTCAA,0.293
ATTACCCA,0.102
GAATACAC,0.158
GAAACTTC,-0.146
CGTCGCGA,-0.24
ACCACCTC,-0.0849
AACATCAG,0.151
ACCCAACC,-0.0265
AATCTCTC,0.064
TACCTCCA,0.0139
AGAGGACT,-0.0537
AGTCTTGA,0.023
GGGGTCTA,-0.103

# Some of these lines once more (series 4):
Strand,log2 enrichment
CACAGACAACACGCACCCACACAGACACAGAGGGAAGGGGUUAGGAUGGGGACAGGGUGCACAGCAGGGCGGGGUAGGACCCCAGCCCCU,1.17
UGUGCUACACAUCGUAUGUACCGAAUCGGGGAAAAAAAGGAAAAAAAGGGGAAAAAAAGGGGAAAGUAUUAUGUUACGCCGUUCGGAUCU,-0.131
CAAGUCCUGUGCUACACAUCGUAUGUACCGAAUCGGAAAAAAAGGAAAGGUUUGGAAAGUAUUAUGUUACGCCGUUCGGAUCUGCACUUC,-1.22
GUCCUGUGCUACACAUCGUAUGUACCGAAUCAAACCCAAAUUUUUUUAAAUUUUUAAAAAAGUAUUAUGUUACGCCGUUCGGAUCUGCAC,-0.204
CUCAAGUCCUGUGCUACACAUCGUAUGUACCGAAUCGGGAAAGGAAAGGAAAGGAAAGUAUUAUGUUACGCCGUUCGGAUCUGCACUUCC,-0.467
AAGUCCUGUGCUACACAUCGUAUGUACCGAAUCGGGGUGGGGUGGGGAAAAAGGGGAAAGUAUUAUGUUACGCCGUUCGGAUCUGCACUU,0.989
CUCAAGUCCUGUGCUACACAUCGUAUGUACCGAAUCGGGUUGGGGUUGGUUGGGAAAGUAUUAUGUUACGCCGUUCGGAUCUGCACUUCC,0.8
CCUCAAGUCCUGUGCUACACAUCGUAUGUACCGAAUCGGCGGGGCGGGGCGGAAAGUAUUAUGUUACGCCGUUCGGAUCUGCACUUCCAG,0.356
ACCAUGCAGGUGGGCAUCUUUGGGAAGUGGGGCAACGGGGGGAUAGGGAGGGGGGUAACACUUUGGGAACAGGUGGUCCCAGGUCGUUUC,0.659
AUUCUUCAUUGAGGGUGAGGAUCUCCCAAUGGGAGACUGCUCUGAAAAGAGCAUGUGCUUUUUGAAUUAGAUAACCUACUAUAAUCAUGG,-0.999
UUAGAUGAGUGACCGAGGAGGUGGCGUUCCUUUGAGGAAAAUUGACAGACUUUUCAACUACAUGUAUUCAACUGCACCAAGACCUCGUGU,-0.449
